Published values pooled from the literature.
Parts stem from different laboratories: compare values within a part only.
Chain of UniProt Q9UQM7 (whole entry, looked up): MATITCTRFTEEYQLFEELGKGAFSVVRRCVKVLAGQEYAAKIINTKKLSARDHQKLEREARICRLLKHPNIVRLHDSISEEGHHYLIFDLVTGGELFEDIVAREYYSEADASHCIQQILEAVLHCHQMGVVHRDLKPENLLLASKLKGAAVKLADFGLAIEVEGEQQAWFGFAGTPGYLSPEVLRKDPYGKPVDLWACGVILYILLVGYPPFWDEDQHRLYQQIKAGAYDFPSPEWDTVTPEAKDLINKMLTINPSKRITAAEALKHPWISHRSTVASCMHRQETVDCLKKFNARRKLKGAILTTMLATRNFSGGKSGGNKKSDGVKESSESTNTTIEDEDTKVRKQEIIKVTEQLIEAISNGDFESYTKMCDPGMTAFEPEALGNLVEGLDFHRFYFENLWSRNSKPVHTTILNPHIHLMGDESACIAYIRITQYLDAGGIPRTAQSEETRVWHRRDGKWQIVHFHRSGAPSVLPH
Chain of UniProt Q05655 (whole entry, looked up): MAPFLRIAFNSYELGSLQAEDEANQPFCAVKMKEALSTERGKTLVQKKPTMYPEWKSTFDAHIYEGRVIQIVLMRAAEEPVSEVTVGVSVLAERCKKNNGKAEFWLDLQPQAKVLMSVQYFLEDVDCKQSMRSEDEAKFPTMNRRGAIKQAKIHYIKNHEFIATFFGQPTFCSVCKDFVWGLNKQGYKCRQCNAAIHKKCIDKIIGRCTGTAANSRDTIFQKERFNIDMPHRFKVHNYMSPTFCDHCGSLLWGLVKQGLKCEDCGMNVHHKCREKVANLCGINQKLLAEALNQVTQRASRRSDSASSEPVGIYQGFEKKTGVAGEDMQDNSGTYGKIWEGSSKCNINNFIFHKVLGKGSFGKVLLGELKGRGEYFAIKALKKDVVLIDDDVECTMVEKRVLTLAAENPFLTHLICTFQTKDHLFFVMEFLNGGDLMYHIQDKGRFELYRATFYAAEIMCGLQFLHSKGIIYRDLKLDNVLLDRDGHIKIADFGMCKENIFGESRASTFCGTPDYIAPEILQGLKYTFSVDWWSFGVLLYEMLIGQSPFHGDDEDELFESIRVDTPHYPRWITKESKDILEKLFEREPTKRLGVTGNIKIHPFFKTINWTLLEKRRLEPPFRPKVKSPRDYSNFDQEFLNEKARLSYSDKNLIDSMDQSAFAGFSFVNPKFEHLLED
Chain of UniProt P07947 (whole entry, looked up): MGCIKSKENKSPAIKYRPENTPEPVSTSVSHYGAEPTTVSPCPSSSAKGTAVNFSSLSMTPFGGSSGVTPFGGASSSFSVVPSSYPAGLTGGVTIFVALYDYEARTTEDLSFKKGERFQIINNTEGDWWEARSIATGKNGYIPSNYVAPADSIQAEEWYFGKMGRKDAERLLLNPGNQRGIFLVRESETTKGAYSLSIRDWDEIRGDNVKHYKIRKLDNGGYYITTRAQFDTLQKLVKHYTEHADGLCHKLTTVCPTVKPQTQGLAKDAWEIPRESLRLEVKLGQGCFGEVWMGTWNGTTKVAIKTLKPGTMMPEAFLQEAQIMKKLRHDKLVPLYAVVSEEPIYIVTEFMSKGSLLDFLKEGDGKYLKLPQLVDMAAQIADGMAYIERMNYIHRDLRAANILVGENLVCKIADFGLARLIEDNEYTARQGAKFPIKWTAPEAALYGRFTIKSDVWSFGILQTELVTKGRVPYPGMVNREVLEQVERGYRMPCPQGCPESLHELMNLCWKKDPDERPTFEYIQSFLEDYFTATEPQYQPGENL
Chain of UniProt Q96BR1 (whole entry, looked up): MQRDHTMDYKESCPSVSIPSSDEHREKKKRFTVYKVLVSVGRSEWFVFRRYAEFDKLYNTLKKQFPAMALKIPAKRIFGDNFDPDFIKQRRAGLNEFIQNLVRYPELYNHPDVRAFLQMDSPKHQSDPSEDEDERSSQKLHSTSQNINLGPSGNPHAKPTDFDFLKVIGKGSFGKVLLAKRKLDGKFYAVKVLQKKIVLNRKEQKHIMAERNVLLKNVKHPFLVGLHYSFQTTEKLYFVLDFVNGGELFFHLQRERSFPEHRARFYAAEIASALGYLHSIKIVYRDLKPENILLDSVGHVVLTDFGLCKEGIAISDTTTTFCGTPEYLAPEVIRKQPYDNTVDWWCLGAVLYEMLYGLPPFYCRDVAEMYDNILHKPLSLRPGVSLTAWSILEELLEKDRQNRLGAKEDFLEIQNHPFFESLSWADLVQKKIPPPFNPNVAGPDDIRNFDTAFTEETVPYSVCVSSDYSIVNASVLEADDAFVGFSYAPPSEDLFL
Chain of UniProt Q6ZWH5 (whole entry, looked up): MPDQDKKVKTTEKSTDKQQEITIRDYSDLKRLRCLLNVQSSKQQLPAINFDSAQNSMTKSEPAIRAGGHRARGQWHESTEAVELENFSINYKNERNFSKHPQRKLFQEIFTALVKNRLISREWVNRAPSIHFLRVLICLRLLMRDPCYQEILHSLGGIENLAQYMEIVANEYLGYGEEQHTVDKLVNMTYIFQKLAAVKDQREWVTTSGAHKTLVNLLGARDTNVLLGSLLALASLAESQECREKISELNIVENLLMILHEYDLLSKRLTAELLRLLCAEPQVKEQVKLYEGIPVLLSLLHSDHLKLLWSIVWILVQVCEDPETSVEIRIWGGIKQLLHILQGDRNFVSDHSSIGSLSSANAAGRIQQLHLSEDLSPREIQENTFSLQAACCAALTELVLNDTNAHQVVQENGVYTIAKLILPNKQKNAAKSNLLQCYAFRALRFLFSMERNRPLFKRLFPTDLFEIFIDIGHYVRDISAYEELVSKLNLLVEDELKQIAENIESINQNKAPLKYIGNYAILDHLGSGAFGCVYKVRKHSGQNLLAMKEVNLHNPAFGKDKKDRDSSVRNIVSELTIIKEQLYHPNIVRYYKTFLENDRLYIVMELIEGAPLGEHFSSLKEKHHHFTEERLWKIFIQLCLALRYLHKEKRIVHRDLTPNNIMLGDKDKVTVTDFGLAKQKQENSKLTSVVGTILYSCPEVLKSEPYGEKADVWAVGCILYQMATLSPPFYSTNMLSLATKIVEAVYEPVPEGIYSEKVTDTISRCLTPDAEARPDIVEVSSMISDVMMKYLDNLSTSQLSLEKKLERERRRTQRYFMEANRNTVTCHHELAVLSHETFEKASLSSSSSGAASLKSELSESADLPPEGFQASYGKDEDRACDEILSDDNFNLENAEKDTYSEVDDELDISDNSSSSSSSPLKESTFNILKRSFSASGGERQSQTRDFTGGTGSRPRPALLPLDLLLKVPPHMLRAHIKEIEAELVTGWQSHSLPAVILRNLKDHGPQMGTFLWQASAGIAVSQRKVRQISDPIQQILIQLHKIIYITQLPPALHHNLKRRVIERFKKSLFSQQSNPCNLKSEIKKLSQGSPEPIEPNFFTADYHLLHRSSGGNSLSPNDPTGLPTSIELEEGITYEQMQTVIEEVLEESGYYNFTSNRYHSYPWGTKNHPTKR
Chain of UniProt Q8TDC3 (whole entry, looked up): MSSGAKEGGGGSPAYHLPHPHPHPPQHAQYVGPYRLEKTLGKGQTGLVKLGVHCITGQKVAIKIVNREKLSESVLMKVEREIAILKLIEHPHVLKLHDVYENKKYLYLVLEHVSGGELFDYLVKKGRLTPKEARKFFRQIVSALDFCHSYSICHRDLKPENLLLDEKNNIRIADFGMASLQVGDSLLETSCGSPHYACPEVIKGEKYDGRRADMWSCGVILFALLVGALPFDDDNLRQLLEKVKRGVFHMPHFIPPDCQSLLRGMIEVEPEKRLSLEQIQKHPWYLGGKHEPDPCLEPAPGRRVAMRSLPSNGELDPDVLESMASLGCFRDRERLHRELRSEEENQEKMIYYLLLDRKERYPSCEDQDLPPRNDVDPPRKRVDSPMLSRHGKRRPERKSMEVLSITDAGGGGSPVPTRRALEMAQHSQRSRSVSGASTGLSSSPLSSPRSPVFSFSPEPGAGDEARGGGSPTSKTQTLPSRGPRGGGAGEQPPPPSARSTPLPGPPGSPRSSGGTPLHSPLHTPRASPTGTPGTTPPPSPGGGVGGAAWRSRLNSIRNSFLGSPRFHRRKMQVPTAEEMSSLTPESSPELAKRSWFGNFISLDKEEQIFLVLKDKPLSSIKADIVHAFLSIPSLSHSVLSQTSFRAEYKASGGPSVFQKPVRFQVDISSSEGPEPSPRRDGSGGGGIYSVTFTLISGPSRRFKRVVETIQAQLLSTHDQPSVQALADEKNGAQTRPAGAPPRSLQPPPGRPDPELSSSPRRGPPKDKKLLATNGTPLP
Chain of UniProt Q8NG66 (whole entry, looked up): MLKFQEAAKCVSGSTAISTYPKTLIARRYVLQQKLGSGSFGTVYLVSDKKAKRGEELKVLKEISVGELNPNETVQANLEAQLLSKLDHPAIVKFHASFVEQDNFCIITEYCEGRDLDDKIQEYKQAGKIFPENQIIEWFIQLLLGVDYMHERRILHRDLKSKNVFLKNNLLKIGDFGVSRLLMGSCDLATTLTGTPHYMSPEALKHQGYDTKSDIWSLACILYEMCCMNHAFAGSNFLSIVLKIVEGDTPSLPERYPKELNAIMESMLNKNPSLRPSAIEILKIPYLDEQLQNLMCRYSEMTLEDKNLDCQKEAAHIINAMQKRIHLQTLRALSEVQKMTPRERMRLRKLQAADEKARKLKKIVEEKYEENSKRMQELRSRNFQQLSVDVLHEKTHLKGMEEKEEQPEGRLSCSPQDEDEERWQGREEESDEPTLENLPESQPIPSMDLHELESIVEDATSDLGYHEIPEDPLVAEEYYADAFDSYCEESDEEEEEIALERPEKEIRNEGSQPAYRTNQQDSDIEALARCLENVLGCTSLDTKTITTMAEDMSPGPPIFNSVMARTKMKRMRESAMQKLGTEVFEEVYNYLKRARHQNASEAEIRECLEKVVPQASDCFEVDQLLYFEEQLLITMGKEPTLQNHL

Block 1 — method: protein-binding microarray; form: hairpin DNA; matrix: in vitro; concentration: not given; relative to: not given; reading: higher = stronger binding
Target: Hepatocyte nuclear factor 3-beta, forkhead domain (FOXA2, Homo sapiens, UniProt Q9Y261, residues 142-269)
Setting: whole hairpin DNA, median over replicate spots
Residues (chain): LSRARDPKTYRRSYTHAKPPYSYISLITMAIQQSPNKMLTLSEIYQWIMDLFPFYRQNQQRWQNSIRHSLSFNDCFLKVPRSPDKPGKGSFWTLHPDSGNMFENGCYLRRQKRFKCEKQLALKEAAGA
Oligonucleotide | median fluorescence
GAGGCCATGTACCCAACGCCTCCTGGCGTTGGGTACATGGCCTCACACTC (5mC at 12) | 3180 a.u.
GAGGCCATGCAAACCGCGCCTCCTGGCGCGGTTTGCATGGCCTCACACTC (5mC at 29) | 3500 a.u.
GAGGCCACGTAACCAACGCCTCCTGGCGTTGGTTACGTGGCCTCACACTC (5mC at 8) | 3340 a.u.
GAGGCCATGTAAAGAACGCCTCCTGGCGTTCTTTACATGGCCTCACACTC (5mC at 31) | 3000 a.u.
GAGGCCACGTAACCAACGCCTCCTGGCGTTGGTTACGTGGCCTCACACTC (5mC at 8 36) | 3240 a.u.
GAGGCCATGCACGCAACGCCTCCTGGCGTTGCGTGCATGGCCTCACACTC (5mC at 12 32) | 3450 a.u.
GAGGCCGTGCAAACAACGCCTCCTGGCGTTGTTTGCACGGCCTCACACTC | 4100 a.u.
GAGGCCCGGTAACCAACGCCTCCTGGCGTTGGTTACCGGGCCTCACACTC | 3430 a.u.

Block 2 — method: EMSA with sequencing; form: double-stranded DNA, one strand shown; matrix: in vitro; concentration: 10 and 20 nM; relative to: negative control set to 0; reading: higher = stronger binding
Target: Hepatocyte nuclear factor 3-alpha (Foxa1, Mus musculus, UniProt P35582, residues 1-468, full length assumed)
Setting: whole designed probe, mean of two concentrations, ends assumed
Shared flanks, not repeated: GTGAGCGGTGCCCATTGATGGGGAAC … TTTCACTGGGATCGTGGGGAC
Oligonucleotide | normalised bound fraction [ratio]
ATCTTCCCCCTCTTCCTTGCCCCACCAGCTCACCTTCCCGGGTTGTTTACTTTGAGGAAAATAAATAAAGCCGGCATTCGTTAACCCTCTTCTGGCGCAAACTGCTGTTTACTTTGGATGAATCATGGTCCTTTGGCGACGCCAGGCTCCGGGAGAGCAAAGCACCGTGTCAGGGCCATGATCCGGGGTGGCC | 0.445
AGCTCCCATATTTACTCCTCTCTGTTTTTTCCCACTATACTCATTCACTCAGGAATTCATTGCTTCTTGATTAGATCATTGTCTTAAATTCATGTTTACTTTTTATTTTCTGTTTTTGATCATTGCATTTATAATTGTTTCACTTTTTCTGCCACCAATTTAATGTTTCCAAGTAACTGTTCCAATCAGTTAA | 0.391
ATCTTCCCCCTCTTCCTTGCCCCACCAGCTCACCTTCCCGGGTATATTGGAGATAGGAAATTAATATAAGCCGGCATTCGTTAACCCTCTTCACGCGCATACTGCTGTTTGCTCTGGATGAATCATGGTCCTTTGGCGACGCCAGGCTCCGGGAGAGCAAAGCACCGTGTCAGGGCCATGATCCGGGGTGGCC | 0.115
ACAAAGTGCTCCAAATGTCCAGTTCCACATACTACAAAATCAGTGTTTGAAACCTGCTCTATGAAAGTGAATGTTCAACTCTGTGTCTTGAATGCAATCTTCCCAAAGAAGTTTCTGATAATGCTTCTGTCTAGATTTTATATGAAGATATTCCCGTTTCCAGCGAAATCCACCAAGCTATCCAAATATCCAC | -0.0376
TAATAAGTAGTAATGCAATTATATTCTAAAATTCAAATGAAAATGTCTATTACTTTATACAACTATACATCTTTAAACACGAGCAATCTACAAAGTAAACACGGAATCTAAACTTACTGATGTATTCACCAAAATTACCTCTCCCTGATATATTATTCTATACATTATAAATGCCTGAGAATTGACACTTTTA | 0.379
AGAACTTGGGTTGCCACAAAGAGATCTGAACTTGTTTTAACTTGTTAAGTCAGTTTTAGAAATACAAAGGTTTAAAGCAGTTTGATGGCTATGTAATTTAGGAAGTTTGCAAAGAACCTGGGTCTACCTCTGGCTATTCAGCAGCTTGGCAAGAGATGACCCGAGTTCTCAGAGTCCCCATCTTTGCATCTGT | -0.0564
AGGTGAATTGGCTGCTTCCATCCTGGCTTGGAACTTCAGACATAGAAGCCTTGGGACTTTCTCAGGACTTTCTCCAGATCTGTCACATGCTCAGCAAACAAGCACTGACTCATGCCACGTGACCTTAGCCAGGGATGTTGGTGAAACTGTGTGTTGGTCTAGGTACCTAGCCCATGCTAGGTGCTCATCGAAT | 0.112
CTTTATTTTTCAGGCCATCCGTTGCACACTGGTAAACTGCACATGTGAATGTTTTCAGCCAGGGAAGATTAACCTGAGGACTTGTGATCAGTGTAAACATGGCTGGGTGGCACATGGTGAGGAAAATCTGGGCTTTTCTTCCCGTTCTTATTATGTTCATGTTCGTGTGTGTGTGTGTGTGTGTGTGTGTGTG | 0.179

Block 3 — effect on: cell-free assay; method: competition with immobilised ligand; concentration: 1 µM
SMILES: CNC(=O)Nc1ccc2c(c1)CC[C@@]21OC(=O)N(CC(=O)N(Cc2ccc(F)cc2)[C@@H](C)C(F)(F)F)C1=O
target | remaining binding [%]
Calcium/calmodulin-dependent protein kinase type II subunit alpha (CAMK2A, Homo sapiens, UniProt Q9UQM7) | 91
Serine/threonine-protein kinase Nek10 (NEK10, Homo sapiens, UniProt Q6ZWH5) | 81
Tyrosine-protein kinase ABL1, non-phosphorylated (ABL1, Homo sapiens, UniProt P00519) | 84
Tyrosine-protein kinase ABL1, non-phosphorylated (ABL1, Homo sapiens, UniProt P00519, H396P) | 49
Tyrosine-protein kinase ABL1, phosphorylated (ABL1, Homo sapiens, UniProt P00519, Q252H) | 81
Epidermal growth factor receptor (EGFR, Homo sapiens, UniProt P00533, L861Q) | 94
Cytoplasmic tyrosine-protein kinase BMX (BMX, Homo sapiens, UniProt P51813) | 72
Hepatocyte growth factor receptor (MET, Homo sapiens, UniProt P08581) | 88
Serine/threonine-protein kinase BRSK1 (BRSK1, Homo sapiens, UniProt Q8TDC3) | 97
Tyrosine-protein kinase Srms (SRMS, Homo sapiens, UniProt Q9H3Y6) | 83
Dual specificity protein kinase CLK4 (CLK4, Homo sapiens, UniProt Q9HAZ1) | 90
Serine/threonine-protein kinase Sgk3 (SGK3, Homo sapiens, UniProt Q96BR1) | 68
Tyrosine-protein kinase Yes (YES1, Homo sapiens, UniProt P07947) | 76
Serine/threonine-protein kinase Nek11 (NEK11, Homo sapiens, UniProt Q8NG66) | 91
Tyrosine-protein kinase ABL1, phosphorylated (ABL1, Homo sapiens, UniProt P00519, M351T) | 100
Dual specificity mitogen-activated protein kinase kinase 2 (MAP2K2, Homo sapiens, UniProt P36507) | 96
Protein kinase C delta type (PRKCD, Homo sapiens, UniProt Q05655) | 76

Block 4 — host: mouse; matrix: microsomes or S9; concentration: 2 µM; time: 0.5 h
Compound | remaining compound [%]
Cc1c(-c2cc(Cn3ccnc3C(C)C)on2)cnn1C | 2.23
COc1cccc(CN(C)c2oc(C(C)(C)C)nc2C#N)c1 | 0.207
Cc1ccc2nc3c(cc(C(=O)NCCCn4ccnc4)n3C)c(=O)n2c1 | 28
CCOc1ccc(S(=O)(=O)N2CCC(Oc3nccnc3C#N)C2)cc1C (centres unmarked) | 0.0783
COc1cc(CC2CC(c3cc(OC)c4c(c3)OCO4)=NO2)cc2c1OCO2 (centres unmarked) | 1.2
